Experimental data of several laboratories.
Compare with care: the assays were run in different laboratories. Numbers after ± are the reported error.

Compound	tested on	test	test system	conditions	scale	measurement	result
Clc1ccc(-c2cc(Cl)c(Cl)c(Cl)c2)cc1Cl	–	–	PDMS-water partitioning	PCB compilation	relative to: maximum over minimum K	literature range factor	2
CC[C@H](C)[C@H](NC(=O)[C@H](Cc1ccc(O)cc1)NC(=O)[C@@H]1CCCN1C(=O)[C@H](CCCNC(=N)N)NC(=O)[C@@H](N)CCCNC(=N)NC(=O)NCCOCCOCCNC(=O)CCCCCN1\C(=C/C=C/C=C/C2=[N+](CCCCS(=O)(=O)[O-])c3ccccc3C2(C)C)C(C)(C)c2ccccc21)C(=O)N[C@@H](CC(C)C)C(=O)O	–	–	PBS with 1% BSA	–	relative to: cresyl violet perchlorate	fluorescence quantum yield	55%
COc1cc2c(cc1OC)CN(CCc1ccc(NC(=O)c3cccc4c(=O)c5cccc(OC)c5[nH]c34)cc1)CC2	–	–	CD-1 mouse, male, lung	intraperitoneal, 3 mg/kg	–	elimination rate constant	3.5e-05 s⁻¹
CC1(C)[C@H](C(=O)OCc2cccc(Oc3ccccc3)c2)[C@@H]1C=C(Cl)Cl	–	refers to: CYP3A4	human, age 5 years, recombinant human CYP3A4	0.1 µM	–	enzyme contribution to clearance	0.75%
C[C@]1(CO)Cc2ncn(-c3ccc(C#N)c(Cl)c3)c2C(=O)O1	–	–	healthy Japanese adults, plasma	3 mg once daily, dosing interval 24 h	–	accumulation ratio of AUC	1
CCN1[C@@H](C(=O)NC23CCC(C(=O)O)(CC2)CC3)[C@H](c2cccc(Cl)c2F)[C@]2(C(=O)Nc3cc(Cl)ccc32)C12CCCCC2	–	–	advanced solid tumour patients	oral, dose not given	relative to: patients	grade 3-4 treatment-related adverse events	52.4%
CC(C)C[C@@H]1NC(=O)CNC(=O)[C@H](CC(N)=O)NC(=O)[C@H](CCCNC(=N)N)NC(=O)[C@H]([C@@H](C)O)NC(=O)[C@@H]2CSSC[C@@H]3NC(=O)[C@H]([C@@H](C)O)NC(=O)[C@H](CCCCN)NC(=O)CNC(=O)[C@H](C(C)C)NC(=O)[C@@H]4CSSC[C@H](NC(=O)[C@H]([C@@H](C)O)NC(=O)[C@H](CSSC[C@H](NC(=O)[C@H](C(C)C)NC(=O)[C@@H]5CCCN5C1=O)C(=O)NCC(=O)N[C@@H](CCC(=O)O)C(=O)N[C@@H]([C@@H](C)O)C(=O)N4)NC(=O)CNC(=O)[C@@H]1CCCN1C(=O)[C@H]([C@@H](C)O)NC(=O)[C@H](CC(N)=O)NC3=O)C(=O)N[C@@H](CO)C(=O)N[C@@H](Cc1c[nH]c3ccccc13)C(=O)N1CCC[C@H]1C(=O)N[C@@H](C(C)C)C(=O)N2	–	HPLC	ammonium bicarbonate 0.1 M	180 µM, 14 days, pH 9.0, 37 °C, deamidation stability	–	remaining peptide	51.9 ± 7.3%
COc1ncccc1-c1cnn2ccc(N3CCN(C(=O)OC(C)C)CC3)nc12	–	–	mouse nerve ligation model, plasma	oral, 3 mg/kg, 120 min after last dose, repeat dosing day 5	–	drug concentration	370 nM
CCN(CCO)CCCC(C)Nc1ccnc2cc(Cl)ccc12 (stereo not drawn)	–	–	newly diagnosed glioblastoma patients	oral, 800 mg/dose, grade 2, with: radiotherapy and temozolomide	–	nausea patients	33%
Clc1cc(Cl)c(-c2cc(Cl)c(Cl)cc2Cl)cc1Cl	–	–	fresh water	20 °C, S30-2 sampler, 30 µm	–	log K(PDMS-water)	6.43 ± 0.05
CCC(CC)(NC(=O)c1ccc(C2CC2)c(Cc2ccc(F)cc2)n1)C(=O)NCCOCCOCCNC(=O)c1ccc2c(c1)C1(OC2=O)c2ccc(N(C)C)cc2[Si](C)(C)c2cc(N(C)C)ccc21	–	–	PBS	100 nM, pH 7.4, 0.1% DMSO	–	fluorescence quantum yield	30.3%
O=C(Nc1ccccc1)C1CCN(C(=O)Oc2cccnc2)CC1	–	Bond-Lader VAS	healthy women	oral, 100 mg	relative to: pre-dose baseline, direction not given	change in Interested-Bored score	-13
COc1ncnn2ccc(-c3cnc4nc(C)n(Cc5nnc([C@@H](C)F)o5)c4c3)c12	–	–	human patients	oral, dose not given, all-grade adverse drug reaction	–	incidence of Dehydration	14.3%
CC(C)C[C@@H]1NC(=O)[C@H](CC(C)C)NC(=O)[C@H](Cc2c[nH]c3ccccc23)NC(=O)[C@H](CO)NC(=O)[C@H](Cc2c[nH]c3ccccc23)NC(=O)[C@@H]2CCCN2C(=O)[C@H](CC(C)C)NC(=O)[C@H](Cc2c[nH]cn2)NC(=O)[C@@H]2CCCN2C(=O)[C@H](CC(N)=O)NC(=O)[C@H](C)NC(=O)[C@H](Cc2ccc(O)cc2)NC(=O)[C@H](CS)NC(=O)[C@H](CCCCNC(=O)CN2CCN(CC(=O)O)CCN(CC(=O)O)CCN(CC(=O)O)CC2)NC1=O [lutetium-177 labelled]	–	radio-HPLC	human serum	24 h	–	remaining intact	> 97%
CN1CCN(c2ccc(Nc3nccc(-c4cccc(Cl)c4)n3)cc2C(F)(F)F)CC1	–	–	zebrafish embryos	25 µM, 5 d	–	toxicity	0%
O=[N+]([O-])c1ccc2c(c1)S(=O)(=O)C=C2	–	flow cytometry	male C57BL/6 mice, spleen	i.p., 10 mg/kg, 8 days	relative to: splenocytes	CD45+ cells	81%
CC(C)C[C@@H]1NC(=O)CNC(=O)[C@H](CC(N)=O)NC(=O)[C@H](CCCNC(=N)N)NC(=O)[C@H]([C@@H](C)O)NC(=O)[C@@H]2CSSC[C@@H]3NC(=O)[C@H]([C@@H](C)O)NC(=O)CNC(=O)CNC(=O)[C@H](C(C)C)NC(=O)[C@@H]4CSSC[C@H](NC(=O)[C@H]([C@@H](C)O)NC(=O)[C@H](CSSC[C@H](NC(=O)[C@H](C(C)C)NC(=O)[C@@H]5CCCN5C1=O)C(=O)NCC(=O)N[C@@H](CCC(=O)O)C(=O)N[C@@H]([C@@H](C)O)C(=O)N4)NC(=O)CNC(=O)[C@@H]1CCCN1C(=O)[C@H](CCCCN)NC(=O)[C@H](CC(N)=O)NC3=O)C(=O)N[C@@H](CO)C(=O)N[C@@H](Cc1c[nH]c3ccccc13)C(=O)N1CCC[C@H]1C(=O)N[C@@H](C(C)C)C(=O)N2	–	HPLC	ammonium bicarbonate	180 µM, 7 days, pH 9.0, 25 °C, deamidation stability	–	remaining peptide	95.3 ± 0.3%
CCCCN1[C@@H]2CC[C@H]1C[C@@H](OC(c1ccc(F)cc1)c1ccc(F)cc1)C2	Plasmodium falciparum	–	Dd2	–	–	IC50	3.98 µM
COc1ccc2nc3cc(Cl)ccc3c(Nc3cc(CN4CCCC4)c(O)c(CN4CCCC4)c3)c2n1	–	–	mouse, blood	oral, 57 mg/kg, tolerability, mean	–	MCHC	374 g/L
Cc1ccc2c(c1)C(=O)C1(O)CCN(c3ccccc3)C1=N2 (stereo not drawn)	–	–	aqueous solution	24 h, kept in dark	–	parent remaining	> 99%
[O-][S+]1CCc2nc(N3CCC(c4ncc(Cl)cn4)CC3)nc(NC3(CO)CCC3)c21 (stereo not drawn)	–	refers to: Dizziness	healthy male humans	48 mg single dose	–	adverse event incidence	0%
CO[C@H]1C[C@@H]2CC[C@@H](C)[C@@](O)(O2)C(=O)C(=O)N2CCCC[C@H]2C(=O)O[C@H]([C@H](C)C[C@@H]2CC[C@@H](OC(=O)NCCOCCOCCOCCOCCOCCOCCOCCOCCC(=O)N3CCc4cc(Cn5nc(-c6ccc7oc(N)nc7c6)c6c(N)ncnc65)ccc4C3)[C@H](OC)C2)C[C@@H](O)[C@H](C)/C=C(\C)[C@@H](O)[C@@H](OC)C(=O)[C@H](C)C[C@H](C)/C=C/C=C/C=C/1C	–	–	patients with advanced solid tumours	intravenous, 12 mg weekly, any grade	–	dyspnoea incidence	25%
O=S(=O)(Nc1ccccc1)c1ccc(NC(=S)Nc2ccccc2)cc1	–	–	mouse, female, blood	oral, 80 mg/kg daily, 14 days	–	mean platelet volume	4.85 fL
COc1cc(CC(=O)O)ccc1O	Plasmodium falciparum	–	W2	–	–	IC50	0.316 µM
CN1CC[C@@H](c2c(O)cc(O)c3c(=O)cc(-c4ccc(C(F)(F)F)cc4Cl)oc23)[C@@H]1CO	–	refers to: Epistaxis	B-cell malignancies or AML	oral, 100 mg, continuous dosing	–	patients with adverse event	0%
CCN1CCN(Cc2ccc(Nc3ncc(F)c(-c4cc(F)c5nc6n(c5c4)[C@H](C)CCC6)n3)nc2)CC1	–	–	advanced solid tumour patients	dose not given, Phase Ia monotherapy	–	Hyponatremia incidence, grade ≥3	0%
CC(C)C[C@H](NC(=O)[C@H](Cc1ccccc1)NC(=O)[C@H](Cc1ccccc1)NC(=O)Cc1ccc(-c2ccccc2)cc1)C(=O)N[C@@H](CCCCN)C(=O)N[C@@H](CCCNC(=N)N)C(=O)N[C@H](C(=O)N[C@@H](Cc1c[nH]c2ccccc12)C(=O)N[C@@H](CCCCN)C(=O)N[C@@H](CCCNC(=N)N)C(=O)O)C(C)C	–	–	mouse liver microsomes	–	–	hepatic clearance	84.4 mL/min/kg
CCc1ccc(CC/C=C/c2ccc3c(c2)C(=O)CC3)cc1	–	–	Sprague-Dawley rat, female	oral, 450 mg/kg/day, 14 days	–	CHCM	333 g/L
COc1cc2c(Oc3ccc4[nH]c(C)cc4c3F)ccnc2cc1OCC1(N)CC1	–	–	paediatric recurrent refractory sarcoma	12 mg	–	Headache incidence	27.3%
CC(=O)c1c(C)c2cnc(Nc3ccc(C4CCN(CCS(C)(=O)=O)CC4)cn3)nc2n(C2CCCC2)c1=O	–	–	rats plasma	–	–	unbound fraction	0.026

Repeated from above:
Compound	tested on	test	test system	conditions	scale	measurement	result
O=[N+]([O-])c1ccc2c(c1)S(=O)(=O)C=C2	–	flow cytometry	male C57BL/6 mice, spleen	i.p., 10 mg/kg, 8 days	relative to: splenocytes	CD45+ cells	81%
COc1ccc2nc3cc(Cl)ccc3c(Nc3cc(CN4CCCC4)c(O)c(CN4CCCC4)c3)c2n1	–	–	mouse, blood	oral, 57 mg/kg, tolerability, mean	–	MCHC	374 g/L
CC(C)C[C@@H]1NC(=O)CNC(=O)[C@H](CC(N)=O)NC(=O)[C@H](CCCNC(=N)N)NC(=O)[C@H]([C@@H](C)O)NC(=O)[C@@H]2CSSC[C@@H]3NC(=O)[C@H]([C@@H](C)O)NC(=O)CNC(=O)CNC(=O)[C@H](C(C)C)NC(=O)[C@@H]4CSSC[C@H](NC(=O)[C@H]([C@@H](C)O)NC(=O)[C@H](CSSC[C@H](NC(=O)[C@H](C(C)C)NC(=O)[C@@H]5CCCN5C1=O)C(=O)NCC(=O)N[C@@H](CCC(=O)O)C(=O)N[C@@H]([C@@H](C)O)C(=O)N4)NC(=O)CNC(=O)[C@@H]1CCCN1C(=O)[C@H](CCCCN)NC(=O)[C@H](CC(N)=O)NC3=O)C(=O)N[C@@H](CO)C(=O)N[C@@H](Cc1c[nH]c3ccccc13)C(=O)N1CCC[C@H]1C(=O)N[C@@H](C(C)C)C(=O)N2	–	HPLC	ammonium bicarbonate	180 µM, 7 days, pH 9.0, 25 °C, deamidation stability	–	remaining peptide	95.3 ± 0.3%
